Results from different studies.
Parts stem from different laboratories: compare values within a part only. Changes are numbered by the printed parent chain.

Set 1
Target: RNA binding protein fox-1 homolog 2, RRM domain, GST-SBP tag (RBFOX2, Homo sapiens, UniProt O43251-10, residues 100-194)
Technique: RNA Bind-n-Seq
Form: RNA
Sample: in vitro
Tested at: 365 nM
Notes: natural RNA segment, single round, ends assumed
Reference: no-protein control
Reading: higher = stronger binding
Endpoint: RBNS enrichment (R)
Shared flanks, not repeated: GGGAGUUCUACAGUCCGACGAUC … UGGAAUUCUCGGGUGCCAA
Target sequence (chain): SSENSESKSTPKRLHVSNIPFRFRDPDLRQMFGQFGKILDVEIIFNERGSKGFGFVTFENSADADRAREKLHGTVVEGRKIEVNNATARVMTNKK
AAAAAAAUGGAGUUGUUUUGGGUGGUAAAGUGUUAAGGAAUAGGGACAGCUGGUCACACAAGGAACUCUUGAAGGCCACAUGUGAAAACCUGUCACUUGCACAGAGGCCA: 0.497
CCUAAUAUAUCCAAAUCCAACUGAAUACCAAAUUGAGAUGGCAAAUUUUUGUUUGAUAUAAGUUAGCUUGUUAGCAUAUGCCCUAGAGGGCCUCCAUCCCUGUAUUCUAA: 0.559
GGCACCUGUCCCUCCUCUCCCCUCACCCUACACUUGUUCCAGCUCUUUGAAAUAGUUUGUGUGAAGGUGAAAGUGCAGUUCAGUAAUAAAUGGUGUCUGUGACUCUGUGA: 0.327
CCAACCAACUUAAGAUUCCAUAAGUAGAACAAGCUAGAUCCUAACCUGAAAUAGCCAUGAGCAAAGCCCACUGCCUUUACAGUCAGGCAGUUGUGCCCAGACCUUCAUGA: 0.387
GCAAAGUGAGACUGACACCUCACUGAGGAAGGGAGACAUAUUCUUGGAGAACUUUCCAUCUGCUUGUAUUUUCCAUACACAUCCCCAGCCAGAAGUUAGUGUCCGAAGAC: 0.863
CUGAGUGGUAUGGAUAACUGGGCAUCUCUAACCCAGGGCAAUCAGUAAGAACUAAUAACCUGUGUCUCCUAGACGAGUCAGGAUGGGAACUGACCUCUAGGAGAUUCUAG: 0.766
GUCCCCCAGGUGUCCAUCUCCUAUCUUUUUGUUCCAAUCUUCUGUGAGUUCCAGCUAGCAGGCUUUACAUCUGGGGAAAGGAAAACCAGGGGUUUUAGCUCUGUUCUCUG: 0.741
UGAUAAAAAAAAUUGAUUAAAUUUAUUUCAUCUCAUAUAUAGAAGUACUUUAUUACCUGGAAACAUUCUUAAUAGAGAUUCAUUAGAAAACCCAAAUCUAAUGUUCAUGU: 0.665
AAAAAAGUCAAGAAACUUUGUAAAAUAUCGUGUGUGUGAUUCCUUGUAAAAUAUUUUCAAAUGGUUUAUUACAGAAGAUCAGUUAUUAAAUAAUGUUCAUAUUUUCACUU: 1.38
AAUUAUGUUGAAGGUAGAAGUGAUCUUCAAAGAGAUGGCCAUUAACUUAGCAGUGGGACCUCACUUUUACAAGCACUGCUCUAGAUAUACUUGAAGAAUUUAAUAGGUAC: 0.427
UUUCUUCUUUUCUUUUCCUGCCAAGUUUUCGGUGGCAUUUGUAGAAGCUGGUGUGAAAGGCUAGGAGGCAUUGUUUUCUAUUAUUCCUCGGUGAAGCCUUUUCCCAGAGC: 1.16
CUUGCAGUAGCAGGCUGACAGGAGCAAUGGCCACCAGCAGGUGAAGGGCAUCGCUGCCCCAGGCCUCAAGCCGGGCACCCAACCCUGGAUGCCACCCCCCAGCGGGUACC: 0.184

Set 2
Target: CCND1, cyclin fold, Cln2 fusion (human)
Technique: yeast growth competition, sequencing
Sample: yeast
Notes: weak parent motif
Reference: not given
Reading: higher = stronger binding
Endpoint: normalised enrichment score
Parent: GMNC docking peptide (human); KNAKRNLSSEFAN
KNAIRNLSSEFAN [K4I]: 1.28
KNAKRNLSWEFAN [S9W]: 0.59
KNANRNLSSEFAN [K4N]: 0.315
KNAKDNLSSEFAN [R5D]: 0.0142
KNAKRNLSMEFAN [S9M]: 0.522
KNAKRNLSQEFAN [S9Q]: 0.459
KNAKRNRSSEFAN [L7R]: -0.00616
KNAKRQLSSEFAN [N6Q]: 0.17
KNAKRNLISEFAN [S8I]: 0.45
KNAKRNLSSEFHN [A12H]: 0.373
KNATRNLSSEFAN [K4T]: 0.0725
KNAKHNLSSEFAN [R5H]: 0.162
KNAKRNLSSEFMN [A12M]: 0.347
KNQKRNLSSEFAN [A3Q]: 0.313
KNAKRNLVSEFAN [S8V]: 0.46
KNAYRNLSSEFAN [K4Y]: 0.533
KNAKRNLSEEFAN [S9E]: 0.879
KNAGRNLSSEFAN [K4G]: 0.206
KNAKRNLSSDFAN [E10D]: 0.0182
KNAKRNLSSQFAN [E10Q]: 0.364
KNAKRNLNSEFAN [S8N]: 0.838
KNAKRNLSSEPAN [F11P]: -0.288
KNAKINLSSEFAN [R5I]: 0.214
KGAKRNLSSEFAN [N2G]: 0.897
KNAKQNLSSEFAN [R5Q]: 0.05

Set 3
Target: ABI1, truncated, D143A, DHFR fusion (Arabidopsis thaliana)
Technique: DHFR PCA, deep sequencing
Sample: yeast
Notes: methotrexate growth selection, single substitutions
With: (+)-ABA 4.8 µM
Reference: wild-type fitted maximum
Reading: higher = stronger binding
Endpoint: relative binding score
Parent: PYL1, truncated, DHFR fusion (Arabidopsis thaliana); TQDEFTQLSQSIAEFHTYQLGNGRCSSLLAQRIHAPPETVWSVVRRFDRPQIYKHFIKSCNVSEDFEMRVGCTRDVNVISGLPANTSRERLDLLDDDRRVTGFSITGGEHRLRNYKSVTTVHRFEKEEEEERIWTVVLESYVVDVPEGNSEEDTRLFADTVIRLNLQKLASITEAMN; partner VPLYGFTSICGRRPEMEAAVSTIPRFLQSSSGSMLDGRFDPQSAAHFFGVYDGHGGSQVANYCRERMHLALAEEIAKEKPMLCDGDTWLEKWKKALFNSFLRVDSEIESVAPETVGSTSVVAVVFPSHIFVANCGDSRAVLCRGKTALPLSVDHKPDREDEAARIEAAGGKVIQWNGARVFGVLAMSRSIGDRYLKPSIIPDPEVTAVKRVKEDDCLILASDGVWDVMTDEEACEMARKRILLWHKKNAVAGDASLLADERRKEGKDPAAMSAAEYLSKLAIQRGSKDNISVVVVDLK
C25Y: -27%
W134K: 35.9%
V136S: 0.674%
L8T: 24.4%
L8D: -9.02%
R99G: 12.1%
E130N: 79%
K116M: 0.342%
H122K: -8.66%
I133D: 96.9%
F47I: -24.5%
H122F: -9.57%
Q2G: 52.4%
S150D: 56.4%
N165R: 6.87%
H122R: 2.63%
L93K: 44.1%
C60H: -5.36%
N177P: 83.2%
E139R: -3.4%
S11A: 76.1%
L91C: 26.3%

Set 4
Target: Histone acetyltransferase KAT6A, winged helix 1, GST fusion (KAT6A, Homo sapiens, UniProt Q92794, residues 1-85)
Technique: protein binding microarray
Form: double-stranded DNA, one strand shown
Sample: in vitro
Tested at: not given
Notes: 8-mer, flanks averaged, mean of 2 arrays, mostly near background
Reference: not given
Reading: higher = stronger binding
Endpoint: E-score
Construct (chain): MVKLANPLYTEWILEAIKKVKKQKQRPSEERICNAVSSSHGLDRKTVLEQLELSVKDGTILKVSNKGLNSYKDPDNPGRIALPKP
CGCTAGAC: 0.0788
TATATGGA: -0.172
AGAACTCT: -0.192
CCTGACGC: 0.0604
AGAAATCA: -0.186
ACATAACG: -0.00072
CGTACAAG: 0.0579
ACATACGT: -0.0127
ATGGACGC: 0.143
CAGCTACC: -0.189
CCATACCG: 0.176
AACTCACG: -0.0605
TCATACCA: -0.098
AGTCGAGG: -0.0798
AATTTAGT: -0.0695
AATAGCAG: -0.239
GCTTGATA: 0.00449
GAATCCGA: 0.137
CGCAAGCC: 0.214

Set 5
Target: Interferon regulatory factor 5, full length, phosphomimetic (IRF5, Homo sapiens, UniProt Q13568-2, residues 1-514, K96S/S451D/S453D/S456D/S462D)
Technique: protein-binding microarray
Form: double-stranded DNA, one strand shown
Sample: in vitro
Tested at: 250 nM
Notes: 60-bp whole probe
With: salmon DNA 0.4 mg/ml
Reference: random background probes
Reading: higher = stronger binding
Endpoint: log fluorescence
Shared flanks, not repeated: GCCTAGCAC … GTCTTGATTCGCTTGACGCTGCTG
GACGGTATCGACTTTCGGGACGTGCTA: 6.77 z-score
GTAGGTATCGGTATCGGTTAGTGCTAG: 9.51 z-score
TCATTTCTCCTTTCCAAACTGTGCTAG: 1.94 z-score
GTCCCTGAATGAAAACATCATGTGCTA: 0.547 z-score
GACGGACCGGGGACTGGGGACGTGCTA: -0.497 z-score
TTATGACTGCTTTTCCTTTAGTGCTAG: 0.674 z-score
GACGATTTCGGGACTGTAGACGTGCTA: 1.82 z-score
AGCAGGGCTGATGCTCCCCTGTGCTAG: -1.16 z-score
TTAGGTCTCCTACAGCTTTAGTGCTAG: -0.237 z-score
TTATGTCTCCTTATCCTTTAGTGCTAG: 0.664 z-score
AGGCAGGCATAAAGGAAAAAGTGCTAG: -0.4 z-score
GACGATCTCAGTATCGACACGTGCTAG: 2.15 z-score
TTGTGTCTGGGATTTTGTCCGTGCTAG: -0.132 z-score
TTAGATTTCGGGCCTGGATTAGTGCTA: 2.32 z-score
TTAGATTTCGGTTTCGATTAGTGCTAG: 11.2 z-score
TTCGGTTTCGGGACTGGGTTAGTGCTA: 7.27 z-score

Single results of other studies
PhoQ, residues 284 288 289 292 302 303 GNNTDL  fold induction (PhoP, residues 12 14 15 18 19 LWHVM (Escherichia coli, UniProt P23836); Sort-seq, measured: YFP reporter; E. coli; PhoQ-PhoP variant library, with: 10 µM Mg2+; reference: high Mg2+ state, higher = stronger signaling): 6.48

Repeated from above (set 5):
GTAGGTATCGGTATCGGTTAGTGCTAG: 9.51 z-score
TCATTTCTCCTTTCCAAACTGTGCTAG: 1.94 z-score
GTCCCTGAATGAAAACATCATGTGCTA: 0.547 z-score
GACGGACCGGGGACTGGGGACGTGCTA: -0.497 z-score
TTATGACTGCTTTTCCTTTAGTGCTAG: 0.674 z-score
GACGATTTCGGGACTGTAGACGTGCTA: 1.82 z-score
AGCAGGGCTGATGCTCCCCTGTGCTAG: -1.16 z-score
TTAGGTCTCCTACAGCTTTAGTGCTAG: -0.237 z-score
TTATGTCTCCTTATCCTTTAGTGCTAG: 0.664 z-score
AGGCAGGCATAAAGGAAAAAGTGCTAG: -0.4 z-score
GACGATCTCAGTATCGACACGTGCTAG: 2.15 z-score
TTGTGTCTGGGATTTTGTCCGTGCTAG: -0.132 z-score
TTAGATTTCGGGCCTGGATTAGTGCTA: 2.32 z-score
TTAGATTTCGGTTTCGATTAGTGCTAG: 11.2 z-score
